{"data": "Assay results collected from several papers", "note": "Each line is one published result; not all experiments were run side by side. ± gives the spread as reported."}
{"SMILES": "O=C(O)CCCOc1ccc(F)cc1-c1cc(-c2ccccc2C(F)(F)F)n(-c2ccccc2)n1", "assay": "measured: Eosinophils", "test system": "Crl:CD(SD) rats, female, blood", "conditions": "iv, 25 µg/kg, 1 day", "quantity": "leukocyte differential", "result": "1.2 ± 0.5%"}
{"SMILES": "C=CC(=O)Nc1cc(Nc2nccc(Nc3cc(Cl)c(F)cc3C(C)(C)O)n2)c(OC)cc1N1CC[C@@H](N(C)C)C1", "test system": "human patients", "conditions": "oral, 100 mg, treatment-emergent adverse events", "quantity": "patients with AST increased", "result": "11.1%"}
{"SMILES": "CC(C)[C@@H]1NC(=O)CNC(=O)[C@H](CC(N)=O)NC(=O)[C@H](CCCNC(=N)N)NC(=O)[C@H](Cc2ccc(O)cc2)NC(=O)[C@H](C(C)C)NC(=O)[C@@H](NC(=O)[C@@H](NC(=O)[C@H](CC(N)=O)NC(=O)[C@H](Cc2c[nH]c3ccccc23)NC(=O)[C@H](C)NC(=O)[C@H](Cc2ccccc2)NC(=O)CN)C(C)C)CSSC[C@@H](C(=O)N[C@@H](Cc2cnc[nH]2)C(=O)N[C@@H](CCCNC(=N)N)C(=O)N[C@@H](CCCNC(=N)N)C(=O)N[C@@H](C)C(=O)N[C@@H](CC(N)=O)C(N)=O)NC(=O)[C@H](C(C)C)NC(=O)[C@H](CCCNC(=N)N)NC1=O", "test system": "ICR mouse, blood", "conditions": "intramammary, 10 mg/kg, day 5, 3 d dosing", "quantity": "lymphocytes", "result": "75 ± 1.28%"}
{"SMILES": "[O-][S+]1CCc2nc(N3CCC(c4ncc(Cl)cn4)CC3)nc(NC3(CO)CCC3)c21 (centres unmarked)", "test system": "idiopathic pulmonary fibrosis patients", "conditions": "18 mg twice daily", "quantity": "Nausea adverse events", "result": "10%"}
{"SMILES": "CN[C@H]1CC[C@@H](c2ccc(Cl)c(Cl)c2)c2ccccc21", "test system": "CD-1 mouse, male, plasma", "conditions": "intraperitoneal, 0.3 mg/kg", "quantity": "elimination rate constant", "result": "1.85e-05 s⁻¹"}
{"SMILES": "Clc1cc(Cl)c(-c2cc(Cl)c(Cl)cc2Cl)cc1Cl", "test system": "fresh water", "conditions": "20 °C", "quantity": "log K(PDMS-water)", "result": "6.42 ± 0.06"}
{"SMILES": "O=C(O)CCC(CP(=O)(O)O)C(=O)O (centres unmarked)", "test system": "rat plasma", "conditions": "8 µg/mL, freeze-thaw cycle 2 at -80 °C", "quantity": "measured concentration", "result": "7.59 ± 0.14 µg/mL"}
{"SMILES": "C[C@@H](NC(=O)N1C(=O)[C@H](Cc2ccnc(N)c2)[C@H]1C(=O)O)C1CCCCC1", "test system": "healthy Chinese adult volunteers", "conditions": "continuous intravenous infusion, dose not given, 5.0 days, CTCAE 5.0, all doses", "quantity": "decreased white blood cell", "result": "10%"}
{"SMILES": "CC(C)CC(=O)OC[C@H]1O[C@@](C#N)(c2ccc3c(N)ncnn23)[C@H](O)[C@@H]1O", "test system": "Sprague-Dawley rat, female, bile", "conditions": "80 mg/kg, time not given", "how to read": "reference: dose", "quantity": "recovery in bile", "result": "2.08e-06%"}
{"SMILES": "C[C@]1(O)C[C@@](N)(c2ccc(-c3nc4n(c3-c3ccccc3)COc3ccncc3-4)cc2)C1", "test system": "human, advanced or metastatic solid tumours", "conditions": "once daily, dose escalation total", "quantity": "patients with grade ≥3 Fatigue TEAE", "result": "11.1%"}
{"SMILES": "c1ccc2c(c1)cc1ccc3cccc4ccc2c1c34", "test system": "fresh water", "conditions": "12 (unit not given), 20 °C, S100 sampler, 100 µm", "quantity": "log K(PDMS-water)", "result": "5.21 ± 0.01"}
{"SMILES": "O=S(=O)(Nc1ccccc1)c1ccc(NC(=S)Nc2ccccc2)cc1", "test system": "female mice, liver", "conditions": "oral, 5 mg/kg daily 14 days", "how to read": "reference: body weight", "quantity": "relative organ weight", "result": "4.88%"}
{"SMILES": "C[C@]1(CO)Cc2ncn(-c3ccc(C#N)c(Cl)c3)c2C(=O)O1", "test system": "human, plasma", "conditions": "10 mg, first dose fasted", "quantity": "half-life", "result": "5.5 h"}
{"SMILES": "CC(C)C[C@@H]1NC(=O)CNC(=O)[C@H](CC(N)=O)NC(=O)[C@H](CCCNC(=N)N)NC(=O)[C@H]([C@@H](C)O)NC(=O)[C@@H]2CSSC[C@@H]3NC(=O)[C@H]([C@@H](C)O)NC(=O)[C@H](CCCCN)NC(=O)CNC(=O)[C@H](C(C)C)NC(=O)[C@@H]4CSSC[C@H](NC(=O)[C@H]([C@@H](C)O)NC(=O)[C@H](CSSC[C@H](NC(=O)[C@H](C(C)C)NC(=O)[C@@H]5CCCN5C1=O)C(=O)NCC(=O)N[C@@H](CCC(=O)O)C(=O)N[C@@H]([C@@H](C)O)C(=O)N4)NC(=O)CNC(=O)[C@@H]1CCCN1C(=O)[C@H]([C@@H](C)O)NC(=O)[C@H](CC(N)=O)NC3=O)C(=O)N[C@@H](CO)C(=O)N[C@@H](Cc1c[nH]c3ccccc13)C(=O)N1CCC[C@H]1C(=O)N[C@@H](C(C)C)C(=O)N2", "assay": "HPLC", "test system": "ammonium bicarbonate", "conditions": "180 µM, 14 days, pH 9.0, 25 °C, deamidation stability", "quantity": "remaining peptide", "result": "90 ± 0.5%"}
{"SMILES": "CCN1[C@@H](C(=O)NC23CCC(C(=O)O)(CC2)CC3)[C@H](c2cccc(Cl)c2F)[C@]2(C(=O)Nc3cc(Cl)ccc32)C12CCCCC2", "test system": "advanced solid tumour patients", "conditions": "oral, dose not given", "quantity": "grade ≥3 treatment-related adverse events", "result": "52.4%"}
{"SMILES": "O=C(Nc1ccccc1)C1CCN(C(=O)Oc2cccnc2)CC1", "assay": "Bond-Lader VAS", "test system": "healthy women", "conditions": "100 mg", "how to read": "reference: pre-dose baseline, direction not given", "quantity": "change in Strong-feeble score", "result": -9.9}
{"SMILES": "CO[C@H]1C[C@@H]2CC[C@@H](C)[C@@](O)(O2)C(=O)C(=O)N2CCCC[C@H]2C(=O)O[C@H]([C@H](C)C[C@@H]2CC[C@@H](OC(=O)NCCOCCOCCOCCOCCOCCOCCOCCOCCC(=O)N3CCc4cc(Cn5nc(-c6ccc7oc(N)nc7c6)c6c(N)ncnc65)ccc4C3)[C@H](OC)C2)C[C@@H](O)[C@H](C)/C=C(\\C)[C@@H](O)[C@@H](OC)C(=O)[C@H](C)C[C@H](C)/C=C/C=C/C=C/1C", "test system": "patients with advanced solid tumours", "conditions": "intravenous, 1.6 mg/3 mg weekly, any grade", "quantity": "incidence of Fatigue TRAE", "result": "20%"}
{"SMILES": "CC(=O)N(C)[C@H]1CCN(C(=O)c2cnc3c(c2)C[C@](C)(c2ccc(F)cc2)N3)C1", "assay": "measured: abdominal discomfort", "test system": "human", "conditions": "oral, dose not given, added: midazolam", "quantity": "adverse event duration", "result": "2 days"}
{"SMILES": "Cn1cc(-c2nc(N[C@@H]3CCCC[C@@H]3N)c(F)c3c2C(=O)NC3)cn1", "assay": "measured: Gastric haemorrhage", "test system": "patients with relapsed or refractory AML", "conditions": "oral, 80 mg twice daily", "quantity": "hemorrhagic adverse events", "result": "67%"}
{"SMILES": "CC1(C)C(/C=C(\\Cl)C(F)(F)F)C1C(=O)OC(C#N)c1cccc(Oc2ccccc2)c1 (centres unmarked)", "test system": "pooled human liver microsomes", "quantity": "CLint", "result": "0.45 mL/min/mg protein"}
{"SMILES": "O[C@H]1CCCN[C@@H]1CCCn1cnc2c(Cl)c(Cl)ccc21", "test system": "healthy CYP2D6 intermediate metabolizers, plasma", "conditions": "oral, 150 mg single dose", "quantity": "median Cmax", "result": "259 ng/mL"}
{"SMILES": "COc1ccnc(C(=O)N[C@H]2COC(=O)[C@H](Cc3ccccc3)[C@@H](OC(=O)C(C)C)[C@H](C)OC2=O)c1OCOC(=O)C(C)C", "assay": "aerobic dark soil incubation", "test system": "clay soil", "conditions": "20 °C, persistence endpoint", "quantity": "DT50", "result": "1.2 days"}
{"SMILES": "Clc1ccc(-c2cccc(Cl)c2Cl)cc1Cl", "test system": "polyethylene-water partitioning", "conditions": "PCB compilation", "how to read": "reference: maximum over minimum K", "quantity": "literature range factor", "result": 2}
{"SMILES": "CN1CCN(c2ccc(Nc3nccc(-c4cccc(F)c4)n3)cc2C(F)(F)F)CC1", "test system": "zebrafish embryos", "conditions": "50 µM, 5 d", "quantity": "toxicity", "result": "0%"}
{"SMILES": "CCc1ccc(CC/C=C/c2ccc3c(c2)C(=O)CC3)cc1", "test system": "Sprague-Dawley rat, female", "conditions": "oral, 120 mg/kg/day, 14 days", "quantity": "CHCM", "result": "335 g/L"}
{"SMILES": "COc1cc2c(Oc3ccc4[nH]c(C)cc4c3F)ccnc2cc1OCC1(N)CC1", "test system": "paediatric recurrent refractory sarcoma", "conditions": "10 mg", "quantity": "grade 1 or 2 bone pain", "result": "25%"}
{"SMILES": "N=C(N)NCCC[C@@H](NC(=O)[C@@H](N)Cc1ccccc1)C(=O)N[C@@H](Cc1ccccc1)C(=O)N[C@@H](CCCCN)C(N)=O", "assay": "LC-MS", "test system": "human", "conditions": "15 mg, 5.833 h", "quantity": "mean amount excreted in urine", "result": "5.05e+06 ng"}
{"SMILES": "O=S(=O)([O-])C(F)(F)C(F)(F)C(F)(F)C(F)(F)C(F)(F)C(F)(F)C(F)(F)C(F)(F)F.[K+]", "test system": "male C57BL/6J mice, EtOH-fed, plasma", "conditions": "dose not given", "how to read": "reference: efavirenz and pair-fed", "quantity": "VLDL level", "result": "increased"}
{"SMILES": "COc1ccc2nc3cc(Cl)ccc3c(Nc3cc(CN4CCCC4)c(O)c(CN4CCCC4)c3)c2n1", "test system": "mouse, blood", "conditions": "oral, 57 mg/kg, tolerability, mean", "quantity": "MCHC", "result": "374 g/L"}
{"SMILES": "CN(C(=O)n1cnc(-c2ccc[n+]([O-])c2)c1)C1CCCCC1", "test system": "Wistar rat, cerebral cortex", "conditions": "oral, 10 mg/kg/day, 48 h, repeated 5 days", "quantity": "concentration", "result": "9.4 ± 1.3 ng/g"}
{"SMILES": "CC(C)C[C@@H]1NC(=O)CNC(=O)[C@H](CCCCN)NC(=O)[C@H](CCCNC(=N)N)NC(=O)[C@H]([C@@H](C)O)NC(=O)[C@@H]2CSSC[C@@H]3NC(=O)[C@H]([C@@H](C)O)NC(=O)CNC(=O)CNC(=O)[C@H](C(C)C)NC(=O)[C@@H]4CSSC[C@H](NC(=O)[C@H](CCCCN)NC(=O)[C@H](CSSC[C@H](NC(=O)[C@H](C(C)C)NC(=O)[C@@H]5CCCN5C1=O)C(=O)NCC(=O)N[C@@H](CCC(=O)O)C(=O)N[C@@H]([C@@H](C)O)C(=O)N4)NC(=O)CNC(=O)[C@@H]1CCCN1C(=O)[C@H]([C@@H](C)O)NC(=O)[C@H](CC(N)=O)NC3=O)C(=O)N[C@@H](CO)C(=O)N[C@@H](Cc1c[nH]c3ccccc13)C(=O)N1CCC[C@H]1C(=O)N[C@@H](C(C)C)C(=O)N2", "assay": "HPLC", "test system": "ammonium bicarbonate 0.1 M", "conditions": "180 µM, 7 days, pH 9.0, 37 °C, deamidation stability", "quantity": "remaining peptide", "result": "100%"}
{"SMILES": "COc1ccc(-c2c(-c3ccc(C#N)c(F)c3)nc(N3CCC(N)CC3)n(C)c2=O)cc1F", "assay": "measured: Neutropenia", "test system": "neuroendocrine neoplasm patients", "conditions": "oral, 60 mg, any grade, dose expansion", "quantity": "treatment-related adverse event incidence", "result": "19%"}
{"SMILES": "CCOc1cc(Oc2ccc(C(F)(F)F)cc2Cl)ccc1[N+](=O)[O-]", "test system": "rat male", "conditions": "62.5 mg/kg, 8 days", "quantity": "final body weight", "result": "138 ± 5.44 g"}
{"SMILES": "CC/C(=C(\\c1ccccc1)c1ccc(OCCN(C)C)cc1)c1ccccc1", "test system": "CD-1 mouse, male, lung", "conditions": "intraperitoneal, 10 mg/kg", "quantity": "elimination rate constant", "result": "3.42e-05 s⁻¹"}
{"SMILES": "Cc1ccc(F)c2cc(C(=O)N[C@@H]3CCC[C@H](N4CC[C@H](N(C)S(C)(=O)=O)C4)C3)[nH]c12", "test system": "CD1 mouse, plasma", "conditions": "oral, 100 mg/kg, 2 h", "quantity": "plasma concentration", "result": "3070 ng/mL"}
{"SMILES": "Clc1ccc(-c2cc(Cl)c(Cl)c(Cl)c2)cc1Cl", "test system": "fresh water", "conditions": "20 °C", "quantity": "log K(PDMS-water)", "result": "5.98 ± 0.04"}
{"SMILES": "CC(=O)c1c(C)c2cnc(Nc3ccc(C4CCN(CCS(C)(=O)=O)CC4)cn3)nc2n(C2CCCC2)c1=O", "test system": "human, plasma", "conditions": "oral, 50 mg, day 1 single dose", "quantity": "elimination rate constant", "result": "1.67e-05 s⁻¹"}
{"SMILES": "C=CCNc1c(O)cc2c(O)c1C[C@@H](C)C[C@H](OC)[C@H](O)[C@@H](C)/C=C(\\C)[C@H](OC(N)=O)[C@@H](OC)/C=C\\C=C(/C)C(=O)N2", "test system": "unresectable or metastatic STS, GIST, other", "conditions": "intravenous, 300 mg/m^2", "quantity": "patients with back pain TEAE", "result": "0%"}
